{"data": "Published values from different studies", "note": "Compare with care: the assays were run in different laboratories. Values joined by “and” are separate records of one study, mostly repeats; a detail may differ. ± gives the spread as reported."}
{"Compound": "CN[C@H](CC(C)C)C(=O)N[C@H]1C(=O)N[C@@H](CC(N)=O)C(=O)N[C@H]2C(=O)N[C@H]3C(=O)N[C@H](C(=O)N[C@H](C(=O)O)c4cc(O)cc(O)c4-c4cc3ccc4O)[C@H](O)c3ccc(c(Cl)c3)Oc3cc2cc(c3O[C@@H]2O[C@H](CO)[C@@H](O)[C@H](O)[C@H]2O[C@H]2C[C@](C)(NCc3ccc(-c4ccc(Cl)cc4)cc3)[C@H](O)[C@H](C)O2)Oc2ccc(cc2Cl)[C@H]1O", "system": "mouse, plasma", "conditions": "intravenous, 75 mg/kg", "measurement": "half-life", "result": "6.6 h"}
{"Compound": "Cc1ccc(OC[C@@H]2CCCN2C)cc1C(=O)N[C@H](C)c1cc(-c2cnn(C)c2)nc2ccccc12", "tested on": "African green monkey cells", "conditions": "7.812 µM", "measurement": "viability", "result": "95.3%"}
{"Compound": "N#[11C]c1ccc(-c2csc(NN=C3CCCC3)n2)cc1", "system": "C57BL/6 mice, male, liver", "conditions": "intravenous, 3 MBq, 5 min", "measurement": "radioactivity uptake", "result": "20.3 ± 1.25 %ID/g"}
{"Compound": "Cc1cc(-c2cc([C@@H](C)NC(=O)c3cc(OCCN(C)C)ccc3C)c3ccccc3n2)n(C)n1", "tested on": "Vero E6", "conditions": "31.25 µM", "measurement": "viability", "result": "87.8% and 92.4%"}
{"Compound": "CC[C@H](C)[C@H](NC(=O)[C@H](CCCCN)NC(=O)CNC(=O)[C@H](CC(C)C)NC(=O)[C@H](Cc1ccccc1)NC(=O)[C@H](CCCCN)NC(=O)[C@H](CO)NC(=O)[C@H](Cc1ccccc1)NC(=O)[C@H](Cc1c[nH]c2ccccc12)NC(=O)[C@H](CCC(N)=O)NC(=O)[C@@H](NC(=O)[C@H](Cc1ccccc1)NC(=O)CCCCCNC(=O)CN1CCN(CC(=O)O)CCN(CC(=O)O)CCN(CC(=O)O)CC1)C(C)C)C(=O)N[C@@H](CCC(=O)O)C(=O)N1CCC[C@H]1C(=O)N[C@@H](CC(=O)O)C(=O)N[C@H](C(=O)N[C@@H](CO)C(=O)N[C@@H](CCC(N)=O)C(=O)N[C@H](C(=O)N[C@@H](CCC(N)=O)C(=O)N[C@@H](CC(=O)O)C(=O)N1CCC[C@H]1C(=O)N[C@@H](CC(N)=O)C(=O)N[C@@H](CC(=O)O)C(=O)N[C@@H](CCC(N)=O)C(=O)N[C@@H](Cc1ccc(O)cc1)C(=O)N[C@@H](CCC(=O)O)C(=O)N1CCC[C@H]1C(=O)N[C@@H](Cc1ccccc1)C(=O)O)C(C)C)C(C)C [copper-64 labelled]", "system": "C57BL/6 male mouse, tumour-naive, bone", "conditions": "4 h", "measurement": "tissue uptake", "result": "1.46 ± 0.3 %ID/g"}
{"Compound": "CCN(CCCCOc1ccc(CCC(=O)N2CCC(Cc3ccccc3)CC2)cc1OC)Cc1ccccc1", "system": "Sprague-Dawley rats, both sexes, faeces", "conditions": "oral gavage, 25 mg/kg, 0 to 6 h", "measurement": "excreted amount", "result": "67.8 ± 39.7 ng"}
{"Compound": "CC[C@H](C)[C@H](NC(=O)[C@H](Cc1ccc(O)cc1)NC(=O)[C@H](C)NC(=O)[C@H](CC(=O)O)NC(=O)[C@H](CC(C)C)NC(=O)[C@H](C)NC(=O)[C@H](C)NC(=O)[C@H](CCCCN)NC(=O)CNC(=O)[C@@H](NC(=O)[C@H](Cc1c[nH]cn1)NC(=O)[C@H](CCCCN)NC(=O)CNC(=O)[C@@H](NC(=O)[C@H](Cc1c[nH]cn1)NC(=O)[C@@H](NC(=O)[C@H](C)NC(=O)[C@H](CCCCN)NC(=O)[C@H](CCCCN)NC(=O)[C@@H](NC(=O)[C@H](Cc1c[nH]c2ccccc12)NC(=O)[C@H](CCCCN)NC(=O)[C@H](CCCNC(=N)N)NC(=O)[C@H](Cc1c[nH]c2ccccc12)NC(=O)CN)[C@@H](C)CC)[C@@H](C)O)C(C)C)[C@@H](C)CC)C(N)=O", "system": "zebrafish embryos 4 hpf, E3 medium", "conditions": "1 h", "measurement": "acute toxic concentration", "result": "5 µM"}
{"Compound": "CC(C)=CCC/C(C)=C/CCn1cc(CC(P(=O)(O)O)P(=O)(O)O)nn1", "system": "mouse (CD-1), brain", "conditions": "intravenous, 0.5 mg/kg, 2 to 168 h", "measurement": "brain drug level", "result": "not detected"}
{"Compound": "CN1Cc2cc(Cl)ccc2-n2c(nnc2C2CCN(c3cccc([18F])n3)CC2)C1", "assay": "PET two-tissue compartment model", "system": "rhesus monkey, occipital cortex", "conditions": "intravenous, dose not given, 100 min scan, baseline scan", "measurement": "total volume of distribution", "result": "1.1 ± 0.47 mL/cm3"}
{"Compound": "CC(C)[C@H](NC(=O)[C@@H](NC(=O)[C@H](CCCNC(=N)N)NC(=O)[C@H](CCCNC(=N)N)NC(=O)[C@H](CCCNC(=N)N)NC(=O)[C@H](CCC(N)=O)NC(=O)[C@H](CCCNC(=N)N)NC(=O)[C@H](CCCNC(=N)N)NC(=O)[C@H](CCCCN)NC(=O)[C@H](CCCCN)NC(=O)[C@H](CCCNC(=N)N)NC(=O)CN)[C@@H](C)O)C(=O)N[C@H](C(=O)N[C@@H](CO)C(=O)N1CCC[C@H]1C(=O)O)[C@@H](C)O", "system": "ICR mouse, female, right kidney", "conditions": "intranasal, 10 mg/kg daily, 4 weeks", "measurement": "kidney weight", "result": "0.224 ± 0.023 g"}
{"Compound": "CSCC[C@H](N)C(=O)N[C@@H](C)C(=O)N[C@@H](CCCNC(=N)N)C(=O)N[C@@H](CCCNC(=N)N)C(=O)N[C@@H](CC(=O)O)C(=O)N[C@@H](CCCCN)C(=O)N[C@H](C(=O)N[C@@H](CC(=O)O)C(=O)N[C@@H](Cc1ccccc1)C(=O)N[C@@H](C)C(=O)N[C@@H](CCCNC(=N)N)C(=O)N[C@@H](CCCNC(=N)N)C(=O)N[C@@H](CCCNC(=N)N)C(=O)N[C@@H](CCCNC(=N)N)C(=O)NCCCCCC(=O)NCCCCC(NC(=O)CCCCCNC(=O)[C@H](CCCNC(=N)N)NC(=O)[C@H](CCCNC(=N)N)NC(=O)[C@H](CCCNC(=N)N)NC(=O)[C@H](CCCNC(=N)N)NC(=O)[C@H](C)NC(=O)[C@H](Cc1ccccc1)NC(=O)[C@H](CC(=O)O)NC(=O)[C@@H](NC(=O)[C@H](CCCCN)NC(=O)[C@H](CC(=O)O)NC(=O)[C@H](CCCNC(=N)N)NC(=O)[C@H](CCCNC(=N)N)NC(=O)[C@H](C)NC(=O)[C@@H](N)CCSC)[C@@H](C)O)C(=O)NCCCCC(NC(=O)C(CCCCNC(=O)CCCCCNC(=O)[C@H](CCCNC(=N)N)NC(=O)[C@H](CCCNC(=N)N)NC(=O)[C@H](CCCNC(=N)N)NC(=O)[C@H](CCCNC(=N)N)NC(=O)[C@H](C)NC(=O)[C@H](Cc1ccccc1)NC(=O)[C@H](CC(=O)O)NC(=O)[C@@H](NC(=O)[C@H](CCCCN)NC(=O)[C@H](CC(=O)O)NC(=O)[C@H](CCCNC(=N)N)NC(=O)[C@H](CCCNC(=N)N)NC(=O)[C@H](C)NC(=O)[C@@H](N)CCSC)[C@@H](C)O)NC(=O)CCCCCNC(=O)[C@H](CCCNC(=N)N)NC(=O)[C@H](CCCNC(=N)N)NC(=O)[C@H](CCCNC(=N)N)NC(=O)[C@H](CCCNC(=N)N)NC(=O)[C@H](C)NC(=O)[C@H](Cc1ccccc1)NC(=O)[C@H](CC(=O)O)NC(=O)[C@@H](NC(=O)[C@H](CCCCN)NC(=O)[C@H](CC(=O)O)NC(=O)[C@H](CCCNC(=N)N)NC(=O)[C@H](CCCNC(=N)N)NC(=O)[C@H](C)NC(=O)[C@@H](N)CCSC)[C@@H](C)O)C(N)=O)[C@@H](C)O (stereo partly drawn)", "system": "C57BL/6 mouse female, thymus", "conditions": "dose not given, 3 h", "how to read": "relative to: total", "measurement": "mean tissue distribution", "result": "0.44%"}
{"Compound": "C=Cc1c(C)c2cc3nc(c(CC(=O)[O-])c4[n-]c(cc5nc(cc1[n-]2)C(C)=C5CC)c(C)c4C(=O)[O-])C(CCC(=O)[O-])C3C.[Cu+2].[Na+].[Na+].[Na+] (stereo not drawn)", "system": "Wistar rat, female", "conditions": "oral, 500 mg/kg daily, 28 days", "measurement": "serum creatinine", "result": "0.37 ± 0.08 mg/dL"}
{"Compound": "O=C1NC2(CC2)COc2ncc(F)cc2[C@H]2COCCN2c2ccn3ncc1c3n2", "system": "Sprague-Dawley rat, female, blood", "conditions": "oral, 2.5 mg/kg/day, 4 weeks, end of recovery, subacute toxicity", "measurement": "lymphocyte percentage", "result": "80.3 ± 5.1%"}
{"Compound": "CCCC[C@H]1C(=O)N(C)[C@@H](CCCC)C(=O)N[C@@H](CCCNC(=O)CN2CCN(CC(=O)O)CCN(CC(=O)O)CCN(CC(=O)O)CC2)C(=O)N[C@H](C(=O)NCC(N)=O)CSCC(=O)N[C@@H](Cc2ccc(O)cc2)C(=O)N(C)[C@@H](C)C(=O)N[C@@H](CC(N)=O)C(=O)N2CCC[C@H]2C(=O)N[C@@H](Cc2c[nH]cn2)C(=O)N[C@@H](CC(C)C)C(=O)N(C)CC(=O)N[C@@H](Cc2c[nH]c3ccccc23)C(=O)N[C@@H](CO)C(=O)N[C@@H](Cc2c[nH]c3ccccc23)C(=O)N1C [gallium-68 labelled]", "system": "NOD/SCID mice, CHO-hPD-L1 xenograft, intestine", "conditions": "60 min, PBS pretreatment", "measurement": "tissue uptake", "result": "2.08 ± 0.36 %ID/g"}
{"Compound": "CC(=O)NCCCC[C@@H]1NC(=O)[C@H](Cc2c[nH]c3c(C)cccc23)NC(=O)[C@H]([C@@H](C)O)NC(=O)[C@H](CC(N)=O)NC(=O)[C@@H](NC(C)=O)C(C)(C)SSC(C)(C)[C@@H](C(=O)N[C@@H](Cc2ccc(OCCN)cc2)C(=O)N[C@@H](Cc2ccc3ccccc3c2)C(=O)NC2(C(=O)N[C@@H](CCC(=O)O)C(=O)N[C@@H](CC(N)=O)C(=O)N[C@@H](Cc3cccnc3)C(=O)N(C)CC(N)=O)CCOCC2)NC1=O", "system": "human", "conditions": "oral, 100 mg multiple doses, day 10", "measurement": "apparent clearance CL/F", "result": "6320 ± 2500 L/h"}
